Measured values pooled from the literature.
Values joined by “and” are separate records of one study, mostly repeats; a detail may differ. Numbers after ± are the reported error.
rep main protease: Replicase polyprotein 1ab, main protease (rep, Severe acute respiratory syndrome coronavirus 2, UniProt P0DTD1)

Compound | target or system | test | test system | setting | quantity | value
CC1(C)CCC(C)(C)c2cc(NC(=O)c3ccc(C(=O)O)cc3)ccc21 | SARS-CoV-2 | viral replication | Vero C1008, USA-WA1/2020 | 2.5 µM, reconfirmation | inhibition | 48.1%
COc1ccc(C[C@@H]2c3cc(Oc4cc(C[C@@H]5c6cc(O)c(OC)cc6CCN5C)ccc4O)c(OC)cc3CCN2C)cc1 | SARS-CoV-2 | cytopathic effect | Vero C1008 (E6) | 50 µM | inhibition | 25%
CC(C)(C)[C@H](NC(=O)C(F)(F)F)C(=O)N1C[C@H]2[C@@H]([C@H]1C(=O)N[C@H](C#N)C[C@@H]1CCNC1=O)C2(C)C | SARS-CoV-2 | viral replication | Vero E6 | 0.125 µM | inhibition | 85% and 135%
CNC(=O)[C@]1(O)C(=O)c2c([nH]c3ccc(Cl)cc23)-c2c(OC)c3ccccc3n21 | SARS-CoV-2 | viral replication, mNeonGreen reporter virus | – | 50 µM | inhibition | 14.1%
CCOC(=O)c1c(CSc2ccccc2)n(C)c2cc(Br)c(O)c(CN(C)C)c12 | SARS-CoV-2 | – | Vero C1008, MEX-BC2/2020 | 7.5 µM, 96 h | inhibition | 17.5%
O=C(CSc1nc2ccccc2c(=O)[nH]1)NNC(=O)c1ccccc1Br | SARS-CoV-2 | viral replication, plaque reduction | – | 125 µM | inhibition | 50 ± 3.3%
Cc1nn(-c2ccc(Cl)cc2)c2c1C(c1ccc(Cl)cc1)C(C#N)=C(N)O2 (stereo not drawn) | SARS-CoV-2 | viral replication | Vero | 1 µM | inhibition | 12.9%
Cc1ccc(C#Cc2ccc(S(=O)(=O)N[C@H](Cc3c[nH]c4ccccc34)C(=O)O)s2)cc1 | rep main protease | viral replication, Gluc reporter | SARS-CoV-2 | 20 µM | inhibition | 2.64%
N#CC(=Cc1ccc(O)c(O)c1)C(=O)c1ccc(O)c(O)c1 | SARS-CoV-2 | viral replication | Vero C1008, USA-WA1/2020 | 2.5 µM, reconfirmation | inhibition | 55.2%
COc1ccc([C@H]2COc3cc(O)ccc3C2)c(O)c1 | SARS-CoV-2 | viral replication | mNeonGreen reporter | 50 µM | inhibition | 102%
CCC(CC)COC(=O)[C@H](C)N[P@](=O)(OC[C@H]1O[C@@](C#N)(c2ccc3c(N)ncnn23)[C@H](O)[C@@H]1O)Oc1ccccc1 | SARS-CoV-2 | viral replication | Vero E6, USA-WA1/2020 | 2.5 µM | inhibition | 97.1%
Cn1cnc(Cn2c(=O)[nH]/c(=N\c3cc4cn(C)nc4cc3Cl)n(Cc3cc(F)c(F)cc3F)c2=O)n1 | – | – | human, mild renal impairment, plasma | oral, 375 mg single dose | Tmax | 2.25 h
O=C[C@H](C[C@@H]1CCNC1=O)NC(=O)[C@H](CC1CCCCC1)NC(=O)c1cc2ccccc2[nH]1 | SARS-CoV-2 | viral replication, NP immunofluorescence | Vero E6, 2019-nCoV-WIV04 | 2.5 µM, added: remdesivir 0 µM | inhibition | 86.2% and 99.6%
Nc1ncnc2c([C@@H]3N[C@H](CO)[C@@H](O)[C@H]3O)c[nH]c12 | Chikungunya virus | viral replication | HeLa, AF 15561 | 100 µM | inhibition | 26.3%
O=C(O[C@@H]1Cc2c(O)cc(O)cc2O[C@@H]1c1cc(O)c(O)c(O)c1)c1cc(O)c(O)c(O)c1 | SARS-CoV-2 | cytopathic effect | Vero E6 | 6.25 µM, first run | inhibition | 0%
CCN1c2ncc(CCOc3cc[n+]([O-])c4ccccc34)cc2C(=O)N(C)c2cccnc21 | SARS-CoV-2 | viral replication | Vero E6, USA-WA1/2020 | 2.5 µM | inhibition | 43.6%
CC[C@H](C)[C@H](NC(=O)[C@H](CC(C)C)NC(=O)[C@H](Cc1c[nH]c2ccccc12)NC(=O)[C@H](CCC(N)=O)NC(=O)[C@@H](NC(=O)[C@H](Cc1ccccc1)NC(=O)[C@H](C)NC(=O)[C@H](CCCCNC(=O)COCCOCCNC(=O)COCCOCCNC(=O)CC[C@H](NC(=O)CCCCCCCCCCCCCCCCCCC(=O)O)C(=O)O)NC(=O)[C@H](CCC(N)=O)NC(=O)[C@H](C)NC(=O)[C@@H](NC(=O)[C@H](CCCCN)NC(=O)[C@H](CC(=O)O)NC(=O)[C@H](CC(C)C)NC(=O)C(C)(C)NC(=O)[C@@H](NC(=O)[C@H](CO)NC(=O)[C@H](Cc1ccc(O)cc1)NC(=O)[C@H](CC(=O)O)NC(=O)[C@H](CO)NC(=O)[C@@H](NC(=O)[C@H](Cc1ccccc1)NC(=O)[C@@H](NC(=O)CNC(=O)[C@H](CCC(=O)O)NC(=O)C(C)(C)NC(=O)[C@@H](N)Cc1ccc(O)cc1)[C@@H](C)O)[C@@H](C)O)[C@@H](C)CC)[C@@H](C)CC)C(C)C)C(=O)N[C@@H](C)C(=O)NCC(=O)NCC(=O)N1CCC[C@H]1C(=O)N[C@@H](CO)C(=O)N[C@@H](CO)C(=O)NCC(=O)N[C@@H](C)C(=O)N1CCC[C@H]1C(=O)N1CCC[C@H]1C(=O)N1CCC[C@H]1C(=O)N[C@@H](CO)C(N)=O | – | – | patients with type 2 diabetes, serum | 5 mg, baseline, proof of concept | serum ALT | 21 ± 14 U/L
O=C(CSc1nc2c(c(=O)[nH]1)CCCC2)NNC(=O)c1ccc([N+](=O)[O-])cc1 | SARS-CoV-2 | virucidal activity, plaque reduction | – | 31.25 µM | inhibition | 22.2 ± 5.1%
CC(C)=CCc1c(O)ccc(C(=O)/C=C/c2ccc(O)cc2)c1O | SARS-CoV-2 | viral cytopathic effect | Vero E6 | 25 µM | inhibition | 0%
CC(C)(O)c1ccc2c(c1)C(=CCCN1CCC(O)(c3ccc(Cl)cc3)C(C)(C)C1)c1cccnc1CO2 (stereo not drawn) | SARS-CoV-2 | viral replication | Vero C1008, USA-WA1/2020 | concentration not given, 24 h | inhibition | 50 to 60%
O=C(/C=C/c1ccc(O)c(O)c1/C=C/c1ccc(O)c(O)c1)O[C@H](Cc1ccc(O)c(O)c1)C(=O)O | SARS-CoV-2 | cytopathic effect | Vero E6 | 100 µM, replicate run | inhibition | 75%
CC(C)CCC(=O)CC1c2ccccc2C(=O)N1c1ccc2ccc(Cl)nc2n1 (stereo not drawn) | SARS-CoV-2 | viral replication | Vero E6, USA-WA1/2020 | 2.5 µM | inhibition | 42.9%
CN1CCc2nc(C(=O)N[C@@H]3C[C@@H](C(=O)N(C)C)CC[C@@H]3NC(=O)C(=O)Nc3ccc(Cl)cn3)sc2C1.Cc1ccc(S(=O)(=O)O)cc1.O | rep main protease | reporter gene (mKate2), inhibitor | – | 20 µM | inhibition | -0.475%
Cc1nn(-c2ccc(Cl)cc2)c2c1C(c1ccc(-c3ccccc3)cc1)C(C#N)=C(N)O2 (stereo not drawn) | SARS-CoV-2 | viral replication | Vero | 1 µM | inhibition | 10.9%

Excerpt of the above:
Compound | target or system | test | test system | setting | quantity | value
CC[C@H](C)[C@H](NC(=O)[C@H](CC(C)C)NC(=O)[C@H](Cc1c[nH]c2ccccc12)NC(=O)[C@H](CCC(N)=O)NC(=O)[C@@H](NC(=O)[C@H](Cc1ccccc1)NC(=O)[C@H](C)NC(=O)[C@H](CCCCNC(=O)COCCOCCNC(=O)COCCOCCNC(=O)CC[C@H](NC(=O)CCCCCCCCCCCCCCCCCCC(=O)O)C(=O)O)NC(=O)[C@H](CCC(N)=O)NC(=O)[C@H](C)NC(=O)[C@@H](NC(=O)[C@H](CCCCN)NC(=O)[C@H](CC(=O)O)NC(=O)[C@H](CC(C)C)NC(=O)C(C)(C)NC(=O)[C@@H](NC(=O)[C@H](CO)NC(=O)[C@H](Cc1ccc(O)cc1)NC(=O)[C@H](CC(=O)O)NC(=O)[C@H](CO)NC(=O)[C@@H](NC(=O)[C@H](Cc1ccccc1)NC(=O)[C@@H](NC(=O)CNC(=O)[C@H](CCC(=O)O)NC(=O)C(C)(C)NC(=O)[C@@H](N)Cc1ccc(O)cc1)[C@@H](C)O)[C@@H](C)O)[C@@H](C)CC)[C@@H](C)CC)C(C)C)C(=O)N[C@@H](C)C(=O)NCC(=O)NCC(=O)N1CCC[C@H]1C(=O)N[C@@H](CO)C(=O)N[C@@H](CO)C(=O)NCC(=O)N[C@@H](C)C(=O)N1CCC[C@H]1C(=O)N1CCC[C@H]1C(=O)N1CCC[C@H]1C(=O)N[C@@H](CO)C(N)=O | – | – | patients with type 2 diabetes, serum | 5 mg, baseline, proof of concept | serum ALT | 21 ± 14 U/L
O=C(CSc1nc2c(c(=O)[nH]1)CCCC2)NNC(=O)c1ccc([N+](=O)[O-])cc1 | SARS-CoV-2 | virucidal activity, plaque reduction | – | 31.25 µM | inhibition | 22.2 ± 5.1%
